Published values pooled from the literature.
Values joined by “and” are separate records of one study, mostly repeats; a detail may differ. ± gives the spread as reported.
rep main protease: Replicase polyprotein 1ab, main protease (rep, Severe acute respiratory syndrome coronavirus 2, UniProt P0DTD1)
Spike glycoprotein: Spike glycoprotein (Severe acute respiratory syndrome coronavirus 2, UniProt P0DTC2)
cya: Calmodulin-sensitive adenylate cyclase (cya, Bacillus anthracis, UniProt P40136)

CCCN1CCN(c2ccc(C(=O)NC3(C(=O)NCC#N)CCCCC3)cc2)CC1 has an inhibition of -0.576% (rep main protease; reporter gene (mKate2), inhibitor; 20 µM).
The inhibition of CCc1cc(C(=O)N2CC[C@@H]([C@@H]3CCCN3C(=O)c3ccc4oc(N)nc4c3)C2)cc(=O)[nH]1 is reported as 14% (rep main protease; enzyme activity, inhibitor; 5 µM).
With O=C(/C=C/c1ccc(O)c(O)c1)OC[C@H]1O[C@@H](OCCc2ccc(O)c(O)c2)[C@H](O)[C@@H](O)[C@@H]1O the kon was 322 M⁻¹ s⁻¹ (Spike glycoprotein; binding, BLI).
Cc1nocc1C(=O)N1Cc2ccccc2[C@@H](CNC(=O)c2cncc3ccc(F)cc23)C1 gave an inhibition of 8.8% (rep main protease; enzyme activity, inhibitor; 5 µM, run 2).
The kinact of Nc1ncnc2c1ccn2C1CCN(C(=O)c2ccc(S(=O)(=O)F)cc2)CC1 is reported as 0.0047 s⁻¹ (cya).
The inhibition of Cc1nc(C(=O)N2CC[C@@H]([C@@H]3CCCN3C(=O)c3cc(C)c4n[nH]nc4c3)C2)cc(=O)[nH]1 is reported as 8.1% (rep main protease; enzyme activity, inhibitor; 5 µM).
For COc1cc(O)cc2oc(-c3ccc(O)c(O)c3)c(O)c(=O)c12, the inhibition was -0.543% (rep main protease; reporter gene (mKate2), inhibitor; 20 µM).
CCc1c(C(=O)C(N)=O)c2c(OCC(=O)O)cccc2n1Cc1ccccc1 gave a remaining activity of 85.8% and 90% (Daboia russelii venom phospholipase A2; enzyme activity, inhibitor; GA population; 0.1 µM, added: NOB substrate; reference: venom alone).
CC[C@H](C)[C@H](NC(=O)[C@@H]1CCCN1C(=O)[C@H](C)NC(=O)[C@@H]1CSSC[C@@H]2NC(=O)[C@H](CC(=O)O)NC(=O)[C@H](CCCNC(=N)N)NC(=O)[C@H](CCC(=O)O)NC(=O)[C@H](CCCNC(=N)N)NC(=O)CNC(=O)[C@H](CC(=O)O)NC(=O)[C@@H]3CSSC[C@H](NC(=O)[C@H](CCC(=O)O)NC(=O)[C@H](CC(C)C)NC(=O)CNC(=O)[C@H](C)NC(=O)[C@H](CSSC[C@H](NC(=O)[C@H](Cc4ccccc4)NC(=O)[C@@H](N)CO)C(=O)N[C@@H](CC(C)C)C(=O)N[C@@H](C(C)C)C(=O)N[C@@H](CCCCN)C(=O)N[C@@H](Cc4c[nH]c5ccccc45)C(=O)N[C@@H](CCCCN)C(=O)N[C@@H](CCC(N)=O)C(=O)N3)NC2=O)C(=O)N[C@@H](Cc2c[nH]c3ccccc23)C(=O)N[C@@H](CCCCN)C(=O)N[C@@H](CCCNC(=N)N)C(=O)N[C@@H](CO)C(=O)NCC(=O)N[C@@H](CC(N)=O)C(=O)N[C@@H](CCCCN)C(=O)N[C@@H](CO)C(=O)N[C@@H](CO)C(=O)N[C@@H](C(C)C)C(=O)N1)C(=O)N[C@H](C(=O)O)[C@@H](C)O — result for “deactivation time constant”: 79 ± 18 ms (ASIC1 (Homo sapiens, UniProt P78348); outside-out patch clamp; HEK-293T ASIC1a knockout; 1 µM, wild type).
With CC[C@H](CC[C@@H](C)[C@H]1CC[C@H]2[C@@H]3CC=C4C[C@@H](O[C@@H]5O[C@H](CO)[C@@H](O)[C@H](O)[C@H]5O)CC[C@]4(C)[C@H]3CC[C@]12C)C(C)C the koff was 252 s⁻¹ (Spike glycoprotein; binding, BLI).
With CC(=O)NO the inhibition was 0.384% (rep main protease; reporter gene (Gaussia luciferase), inhibitor; 20 µM).
O=C(NC[C@H](NC(=O)c1cncc2sccc12)c1ccc2ccccc2c1)c1cncs1 has an inhibition of 13.4% (rep main protease; enzyme activity, inhibitor; 5 µM, mean of runs).
COc1ccc(C[C@@H]2c3cc(Oc4cc(C[C@@H]5c6cc(O)c(OC)cc6CCN5C)ccc4O)c(OC)cc3CCN2C)cc1 has a kon of 959 M⁻¹ s⁻¹ (Spike glycoprotein; binding, BLI).
For C=C1C(=O)[C@@]23[C@H](O)C[C@@H]4C(C)(C)C(=O)CC[C@@]4(C)[C@@H]2CC[C@@H]1[C@H]3O, the inhibition was -1.77% (rep main protease; reporter gene (mKate2), inhibitor; 20 µM).
C[C@@H]1O[C@@H](O[C@@H]2[C@@H](O)[C@H](OCCc3ccc(O)c(O)c3)O[C@H](CO)[C@H]2OC(=O)/C=C/c2ccc(O)c(O)c2)[C@H](O)[C@H](O)[C@H]1O has a kon of 113 M⁻¹ s⁻¹ (Spike glycoprotein; binding, BLI).
With Cc1nc(N)cc(OC2CCN(C(=O)c3ccc(S(=O)(=O)F)cc3)CC2)n1 the kinact was 0.00187 s⁻¹ (cya).
With O=C(N[C@@H]1CC[C@H]2C[C@@H]1CN2C(=O)c1cccc(-n2cncn2)c1)c1cc2c(=O)[nH]ccn2n1 the inhibition was 9.4% (rep main protease; enzyme activity, inhibitor; 5 µM).
For C[C@@H]1O[C@@H](O[C@H]2C(=O)c3c(O)cc(O)cc3O[C@@H]2c2ccc(O)c(O)c2)[C@H](O)[C@H](O)[C@H]1O, the koff was 0.00894 s⁻¹ (Spike glycoprotein; binding, BLI).
With O=C1NCc2c1cccc2C(=O)N[C@H](CNC(=O)c1ccnc2[nH]ncc12)c1ccccc1 the inhibition was 10.3% (rep main protease; enzyme activity; 5 µM).
The inhibition of CC(C)C[C@H](CC(=O)NO)C(=O)N[C@@H](Cc1ccc2ccccc2c1)C(=O)N[C@@H](C)C(=O)NCCN is reported as -0.935% (rep main protease; viral replication, mKate2 reporter; SARS-CoV-2; 20 µM).
With O=C(/C=C\c1cnccn1)NC[C@@H](NC(=O)c1cn[nH]c(=O)c1)c1ccc2ccccc2c1 the inhibition was 14.9% (rep main protease; enzyme activity, inhibitor; 5 µM, run 1).
With N=C(N)c1ccc2cc(OC(=O)c3ccc(N=C(N)N)cc3)ccc2c1 the inhibition was 3.17% (rep main protease; reporter gene (Gaussia luciferase), inhibitor; 20 µM).
For CO[C@H]1C[C@@H]2CC[C@@H](C)[C@@](O)(O2)C(=O)C(=O)N2CCCC[C@H]2C(=O)O[C@H]([C@H](C)C[C@@H]2CC[C@@H](O)[C@H](OC)C2)CC(=O)[C@H](C)/C=C(\C)[C@@H](O)[C@@H](OC)C(=O)[C@H](C)C[C@H](C)/C=C/C=C/C=C/1C, the kon was 2170 M⁻¹ s⁻¹ (Spike glycoprotein; binding, BLI).
For Cl.O=C(O)/C=C/c1ccc(Cn2ccnc2)cc1, the inhibition was -0.698% (rep main protease; reporter gene (mKate2), inhibitor; 20 µM).
CC(C)n1cc(C(=O)NC2CCCc3c2[nH]c2ccccc32)c2ccccc2c1=O (stereo not drawn) has a Hill slope of 1.74 ± 0.16 (Replicase polyprotein 1ab, nsp14 N7-methyltransferase (rep, Severe acute respiratory syndrome coronavirus 2, UniProt P0DTD1); N7-methyltransferase activity, inhibitor, Py-FLINT).
COc1cc(N2CCN(C)CC2)ccc1Nc1ncc2c(n1)N(C)c1ccccc1C(=O)N2 has an inhibition of -0.288% (rep main protease; viral replication, mKate2 reporter; SARS-CoV-2; 20 µM).
O=C1NC(=O)C2(CC(C(=O)NC[C@@H]3CC4(CCC4)CN3C(=O)c3ccn4ccnc4c3)C2)N1 (stereo partly drawn) gave an inhibition of 11.6% (rep main protease; enzyme activity, inhibitor; 5 µM, run 1).
